# Results from different studies.
# A part holds a random share of what one study measured.
# Sequence of UniProt Q14012 (whole entry, looked up): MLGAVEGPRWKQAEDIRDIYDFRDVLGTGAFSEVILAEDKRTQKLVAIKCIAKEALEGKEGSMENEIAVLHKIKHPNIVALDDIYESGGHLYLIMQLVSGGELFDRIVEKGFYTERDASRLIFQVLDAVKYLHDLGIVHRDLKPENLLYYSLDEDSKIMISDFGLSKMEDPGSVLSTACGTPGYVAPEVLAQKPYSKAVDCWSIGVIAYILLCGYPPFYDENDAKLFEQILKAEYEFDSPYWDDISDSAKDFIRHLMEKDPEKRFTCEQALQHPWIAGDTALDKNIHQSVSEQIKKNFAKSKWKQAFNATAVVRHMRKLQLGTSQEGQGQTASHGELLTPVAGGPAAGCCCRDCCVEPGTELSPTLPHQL
# Sequence of UniProt Q9H3N8 (whole entry, looked up): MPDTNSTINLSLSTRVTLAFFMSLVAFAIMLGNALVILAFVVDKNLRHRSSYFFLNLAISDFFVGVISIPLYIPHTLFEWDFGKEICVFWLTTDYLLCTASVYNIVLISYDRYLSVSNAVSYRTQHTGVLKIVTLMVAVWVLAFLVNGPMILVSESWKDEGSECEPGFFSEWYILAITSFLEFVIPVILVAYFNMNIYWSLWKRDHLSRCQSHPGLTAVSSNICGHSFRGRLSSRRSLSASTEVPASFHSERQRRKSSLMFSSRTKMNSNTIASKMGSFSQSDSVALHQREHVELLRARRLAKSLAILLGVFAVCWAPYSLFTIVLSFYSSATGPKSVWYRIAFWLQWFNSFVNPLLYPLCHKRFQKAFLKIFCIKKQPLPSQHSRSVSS
# Sequence of UniProt Q9UPE1 (whole entry, looked up): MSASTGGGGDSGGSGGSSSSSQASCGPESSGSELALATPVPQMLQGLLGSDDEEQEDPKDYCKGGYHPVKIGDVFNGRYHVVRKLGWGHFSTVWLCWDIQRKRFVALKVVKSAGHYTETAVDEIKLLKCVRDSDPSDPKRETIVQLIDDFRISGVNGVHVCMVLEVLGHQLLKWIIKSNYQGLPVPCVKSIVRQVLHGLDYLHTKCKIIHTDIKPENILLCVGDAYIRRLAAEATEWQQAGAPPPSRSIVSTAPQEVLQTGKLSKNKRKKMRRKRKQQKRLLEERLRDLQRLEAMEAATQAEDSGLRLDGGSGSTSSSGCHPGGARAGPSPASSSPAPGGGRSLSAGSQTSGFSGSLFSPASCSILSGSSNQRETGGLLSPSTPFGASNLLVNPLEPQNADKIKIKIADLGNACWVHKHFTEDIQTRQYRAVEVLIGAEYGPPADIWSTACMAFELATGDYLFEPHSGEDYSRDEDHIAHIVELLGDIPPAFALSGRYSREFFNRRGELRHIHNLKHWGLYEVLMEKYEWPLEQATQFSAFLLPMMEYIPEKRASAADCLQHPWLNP
# Sequence of UniProt P04049 (whole entry, looked up): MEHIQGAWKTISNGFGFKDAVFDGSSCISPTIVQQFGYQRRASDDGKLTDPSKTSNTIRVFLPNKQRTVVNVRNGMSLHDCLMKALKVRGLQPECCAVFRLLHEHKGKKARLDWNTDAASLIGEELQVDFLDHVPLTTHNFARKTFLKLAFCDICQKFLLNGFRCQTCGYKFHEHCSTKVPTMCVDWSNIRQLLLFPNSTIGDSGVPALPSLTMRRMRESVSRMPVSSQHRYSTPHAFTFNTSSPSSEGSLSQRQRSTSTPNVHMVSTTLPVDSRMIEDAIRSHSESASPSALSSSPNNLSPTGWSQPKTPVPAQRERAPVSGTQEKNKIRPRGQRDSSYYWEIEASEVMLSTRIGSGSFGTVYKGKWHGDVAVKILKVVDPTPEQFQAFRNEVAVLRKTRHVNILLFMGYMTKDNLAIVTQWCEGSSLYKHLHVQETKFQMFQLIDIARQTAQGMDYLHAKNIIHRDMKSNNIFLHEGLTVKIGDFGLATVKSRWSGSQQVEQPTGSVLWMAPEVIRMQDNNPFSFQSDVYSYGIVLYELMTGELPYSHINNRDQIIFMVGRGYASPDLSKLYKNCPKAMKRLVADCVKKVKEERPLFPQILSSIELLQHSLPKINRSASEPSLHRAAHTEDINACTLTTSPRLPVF
# Sequence of UniProt P46098 (whole entry, looked up): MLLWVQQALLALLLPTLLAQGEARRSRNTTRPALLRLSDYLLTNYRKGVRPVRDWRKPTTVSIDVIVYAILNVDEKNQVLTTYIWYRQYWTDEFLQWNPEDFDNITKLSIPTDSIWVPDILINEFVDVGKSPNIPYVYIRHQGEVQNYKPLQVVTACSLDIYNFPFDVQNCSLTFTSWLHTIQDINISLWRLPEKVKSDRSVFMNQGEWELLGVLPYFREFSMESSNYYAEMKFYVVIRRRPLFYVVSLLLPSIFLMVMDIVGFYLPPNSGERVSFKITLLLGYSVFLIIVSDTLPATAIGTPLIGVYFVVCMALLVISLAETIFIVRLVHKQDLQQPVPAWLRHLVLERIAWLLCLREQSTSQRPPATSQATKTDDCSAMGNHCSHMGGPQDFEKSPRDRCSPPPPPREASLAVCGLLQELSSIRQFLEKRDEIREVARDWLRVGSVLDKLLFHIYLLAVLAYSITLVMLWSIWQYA
# Sequence of UniProt P08172 (whole entry, looked up): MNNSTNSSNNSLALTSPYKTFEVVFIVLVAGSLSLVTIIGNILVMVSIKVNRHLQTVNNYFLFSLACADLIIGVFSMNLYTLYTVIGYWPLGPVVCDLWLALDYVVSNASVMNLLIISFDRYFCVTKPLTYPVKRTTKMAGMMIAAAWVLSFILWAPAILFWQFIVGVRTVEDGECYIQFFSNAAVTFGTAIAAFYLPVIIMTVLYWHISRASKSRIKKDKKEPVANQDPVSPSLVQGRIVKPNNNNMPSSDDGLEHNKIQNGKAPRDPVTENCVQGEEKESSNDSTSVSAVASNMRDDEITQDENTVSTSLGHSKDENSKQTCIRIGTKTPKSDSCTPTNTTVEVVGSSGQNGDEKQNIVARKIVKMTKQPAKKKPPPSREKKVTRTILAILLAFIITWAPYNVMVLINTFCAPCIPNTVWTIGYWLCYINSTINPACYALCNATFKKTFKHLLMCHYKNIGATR
# Sequence of UniProt P25100 (whole entry, looked up): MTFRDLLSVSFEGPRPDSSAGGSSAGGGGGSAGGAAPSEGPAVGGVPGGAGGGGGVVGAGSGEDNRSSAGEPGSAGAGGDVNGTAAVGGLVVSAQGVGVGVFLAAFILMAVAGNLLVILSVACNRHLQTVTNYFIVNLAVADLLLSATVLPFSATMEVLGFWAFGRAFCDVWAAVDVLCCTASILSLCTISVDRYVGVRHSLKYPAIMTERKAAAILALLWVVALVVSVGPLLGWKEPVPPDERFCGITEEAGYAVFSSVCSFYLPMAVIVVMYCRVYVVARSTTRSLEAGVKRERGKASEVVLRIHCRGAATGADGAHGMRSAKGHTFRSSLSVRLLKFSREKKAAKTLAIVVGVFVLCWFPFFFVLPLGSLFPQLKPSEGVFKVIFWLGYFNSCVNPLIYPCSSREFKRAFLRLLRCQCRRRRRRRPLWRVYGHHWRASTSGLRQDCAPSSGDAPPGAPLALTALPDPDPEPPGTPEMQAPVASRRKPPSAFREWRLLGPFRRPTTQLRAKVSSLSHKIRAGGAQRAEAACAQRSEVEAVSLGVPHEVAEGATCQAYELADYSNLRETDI
# Sequence of UniProt P21728 (whole entry, looked up): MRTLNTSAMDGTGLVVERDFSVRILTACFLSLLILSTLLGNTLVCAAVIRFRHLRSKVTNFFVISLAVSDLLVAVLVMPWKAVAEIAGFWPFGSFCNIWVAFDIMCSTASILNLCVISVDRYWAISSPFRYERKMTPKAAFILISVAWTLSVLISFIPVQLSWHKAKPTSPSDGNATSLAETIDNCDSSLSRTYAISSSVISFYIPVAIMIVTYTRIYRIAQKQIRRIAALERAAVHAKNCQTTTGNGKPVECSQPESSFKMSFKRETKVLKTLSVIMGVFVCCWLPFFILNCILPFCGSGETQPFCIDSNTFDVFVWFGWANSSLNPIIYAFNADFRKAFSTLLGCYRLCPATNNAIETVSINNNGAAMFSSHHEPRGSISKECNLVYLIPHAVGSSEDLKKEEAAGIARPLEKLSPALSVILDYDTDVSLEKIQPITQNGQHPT
# Sequence of UniProt P08173 (whole entry, looked up): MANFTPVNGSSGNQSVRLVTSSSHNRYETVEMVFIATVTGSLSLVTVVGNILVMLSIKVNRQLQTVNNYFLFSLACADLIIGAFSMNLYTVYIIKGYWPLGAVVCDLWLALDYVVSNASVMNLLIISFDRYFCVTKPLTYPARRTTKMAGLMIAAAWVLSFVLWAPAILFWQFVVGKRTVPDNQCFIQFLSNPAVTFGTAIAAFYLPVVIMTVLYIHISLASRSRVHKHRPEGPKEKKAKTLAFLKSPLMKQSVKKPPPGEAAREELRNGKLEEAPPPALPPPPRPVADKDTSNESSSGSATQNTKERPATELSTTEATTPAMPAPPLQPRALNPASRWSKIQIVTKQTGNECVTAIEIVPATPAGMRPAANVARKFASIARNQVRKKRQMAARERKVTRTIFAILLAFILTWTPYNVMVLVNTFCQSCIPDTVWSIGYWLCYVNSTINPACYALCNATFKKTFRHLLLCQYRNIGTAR

# Sample 1
# Structure (SMILES): O=C(O)[C@@H]1[C@@H](Cn2nnc3ccccc3c2=O)CC[C@H]1C(=O)c1ccc(OCCC2CCOCC2)cc1
# Read-out: binding
# Method: radioligand binding
# Tested at: 10 µM
target,inhibition [%]
"Histamine H2 receptor (HRH2, Homo sapiens, UniProt P25021)",17.5
"Muscarinic acetylcholine receptor M4 (CHRM4, Homo sapiens, UniProt P08173)",-7.11
"Alpha-1D adrenergic receptor (ADRA1D, Homo sapiens, UniProt P25100)",0.08
"5-hydroxytryptamine receptor 7 (HTR7, Homo sapiens, UniProt P34969)",-2.99
"Alpha-1B adrenergic receptor (ADRA1B, Homo sapiens, UniProt P35368)",6.29
"5-hydroxytryptamine receptor 3A (HTR3A, Homo sapiens, UniProt P46098)",-12.4
"5-hydroxytryptamine receptor 5A (HTR5A, Homo sapiens, UniProt P47898)",1.33
"Muscarinic acetylcholine receptor M2 (CHRM2, Homo sapiens, UniProt P08172)",-2.32
"D(1A) dopamine receptor (DRD1, Homo sapiens, UniProt P21728)",4.76
"Alpha-2C adrenergic receptor (ADRA2C, Homo sapiens, UniProt P18825)",13.1
"Beta-3 adrenergic receptor (ADRB3, Homo sapiens, UniProt P13945)",-31.9
"Histamine H4 receptor (HRH4, Homo sapiens, UniProt Q9H3N8)",3.39
"Alpha-2B adrenergic receptor (ADRA2B, Homo sapiens, UniProt P18089)",8.62

# Sample 2
# Structure (SMILES): Cc1sc(C(=O)NC2COC2)cc1-n1cc(NC(=O)Nc2c(F)cccc2Cl)cn1
# Tested at: 10 µM
target,assay,scale,remaining activity [%]
"cGMP-dependent protein kinase 1, isoform beta (PRKG1, Homo sapiens, UniProt Q13976)","kinase activity, kinase panel profiling",,84.7
"Serine/threonine-protein kinase Nek5 (NEK5, Homo sapiens, UniProt Q6P3R8)","enzyme activity, inhibitor",,105
"G protein-coupled receptor kinase 3 (GRK3, Homo sapiens, UniProt P35626)",enzyme activity,relative to: untreated control,105
"SRSF protein kinase 3 (SRPK3, Homo sapiens, UniProt Q9UPE1)",enzyme activity,relative to: untreated control,92.7
"Cyclin-dependent kinase 1, with cyclin A (CDK1, Homo sapiens, UniProt P06493)",enzyme activity,relative to: untreated control,103
"Serine/threonine-protein kinase greatwall (MASTL, Homo sapiens, UniProt Q96GX5)",enzyme activity,relative to: untreated control,108
"Casein kinase I isoform delta (CSNK1D, Homo sapiens, UniProt P48730)",enzyme activity,relative to: untreated control,107
"Calcium/calmodulin-dependent protein kinase type 1 (CAMK1, Homo sapiens, UniProt Q14012)",enzyme activity,relative to: untreated control,113
"Hepatocyte growth factor receptor (MET, Homo sapiens, UniProt P08581)",enzyme activity,relative to: untreated control,74.5
"Mitogen-activated protein kinase 7 (MAPK7, Homo sapiens, UniProt Q13164)",enzyme activity,relative to: untreated control,95

# Sample 3
# SMILES: COc1cc(C(=O)N2CCC(N3CCN(C)CC3)CC2)ccc1Nc1ncc2c(n1)N(C)c1ccccc1C(=O)N2C
# Mode: inhibitor
# Tested at: 5 µM
target,assay,system,setting,scale,log2 fold change
"Angiopoietin-1 receptor (TEK, Homo sapiens, UniProt Q02763, Y897S)",kinase–CDC37 interaction,,TEK Y897S mutant,relative to: vehicle,-0.012
"Epidermal growth factor receptor (EGFR, Homo sapiens, UniProt P00533, L858R)",,human cells,,relative to: vehicle,0.515
kinase–CDC37 interaction,kinase–CDC37 binding,human cells,oncogenic FCHSD1-BRAF fusion,relative to: vehicle,0.02
"RAF proto-oncogene serine/threonine-protein kinase (RAF1, Homo sapiens, UniProt P04049)",kinase activity,,cell-based kinome screen,relative to: vehicle,-0.235
human ITK-SYK fusion,kinase–CDC37 interaction,,,relative to: vehicle,0.312
FLT3 ITD human,kinase-CDC37 interaction,human cells,,relative to: vehicle,-0.323
"Serine/threonine-protein kinase B-raf (BRAF, Homo sapiens, UniProt P15056, G466V)",cell-based kinome profiling,human cells,,relative to: vehicle control,-0.219

# Sample 4
# Target: Calcium/calmodulin-dependent protein kinase type II subunit alpha (CAMK2A, Homo sapiens, UniProt Q9UQM7)
# Sequence of UniProt Q9UQM7 (whole entry, looked up): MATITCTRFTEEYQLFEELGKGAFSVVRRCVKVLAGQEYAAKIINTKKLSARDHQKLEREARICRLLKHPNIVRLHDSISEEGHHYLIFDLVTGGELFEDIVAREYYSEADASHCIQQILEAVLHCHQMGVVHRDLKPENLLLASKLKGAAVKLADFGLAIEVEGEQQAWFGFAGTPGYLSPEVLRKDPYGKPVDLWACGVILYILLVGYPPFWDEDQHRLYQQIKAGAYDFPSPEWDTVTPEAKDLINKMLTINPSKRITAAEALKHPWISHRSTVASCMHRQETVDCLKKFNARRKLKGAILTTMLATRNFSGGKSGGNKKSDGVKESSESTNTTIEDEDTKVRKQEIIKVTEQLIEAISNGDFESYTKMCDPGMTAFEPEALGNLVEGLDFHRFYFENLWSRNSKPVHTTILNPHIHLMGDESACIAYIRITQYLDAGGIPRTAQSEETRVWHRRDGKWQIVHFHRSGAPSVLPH
# Read-out: enzyme activity
# Mode: inhibitor
# Tested at: 10 µM
Structure (SMILES),inhibition [%]
Cc1cnc(C)c(C)n1,-14
CCOc1ccccc1C(=O)NCc1coc(-c2ccc(OC(F)F)c(OC(C)C)c2)n1,1
CC(=O)OCC(=O)[C@@]1(O)CC[C@H]2[C@@H]3CCC4=CC(=O)CC[C@]4(C)[C@@]3(F)[C@@H](O)C[C@@]21C,-11
COc1ccc(CC(=O)O)cc1OC,20
Cc1nnc(NS(=O)(=O)c2ccc(N)cc2)s1,-9
COc1c2ccoc2cc2oc(=O)ccc12,20
Cc1ccsc1C(=CCCN1CCC[C@@H](C(=O)O)C1)c1sccc1C,-4
Nc1nc(N)c(O[C@@H]2O[C@H](CO)[C@@H](O)[C@H](O)[C@H]2O)c(=O)[nH]1,-40
C[C@@H]1CC[C@@]2(OC1)O[C@H]1C[C@H]3[C@@H]4CC=C5C[C@@H](O[C@@H]6O[C@H](CO)[C@@H](O)[C@H](O)[C@H]6O)CC[C@]5(C)[C@H]4CC[C@]3(C)[C@H]1[C@@H]2C,3

# Some of these lines once more (sample 1):
target,inhibition [%]
"Histamine H2 receptor (HRH2, Homo sapiens, UniProt P25021)",17.5
"5-hydroxytryptamine receptor 3A (HTR3A, Homo sapiens, UniProt P46098)",-12.4
"Alpha-1B adrenergic receptor (ADRA1B, Homo sapiens, UniProt P35368)",6.29
"Histamine H4 receptor (HRH4, Homo sapiens, UniProt Q9H3N8)",3.39
"Alpha-2C adrenergic receptor (ADRA2C, Homo sapiens, UniProt P18825)",13.1
